Measured values pooled from the literature.
Lines come from different studies, so protocols differ. ± marks the error that the study gave. Converted amounts (≈) assume the structure as drawn.

Compound	assay	system	setting	how to read	endpoint	value
O/N=C/c1cnn(-c2ccccc2)n1	aPTT	human plasma	10 µM	–	clotting time	48.5 ± 1 s
CC[C@H]1[C@@H](O)[C@@H]2[C@H](CC[C@]3(C)[C@@H]([C@H](C)CCOS(=O)(=O)[O-])CC[C@@H]23)[C@@]2(C)CC[C@@H](O)C[C@@H]12.[Na+]	–	ob/ob NASH mouse, liver	10 mg/kg, 8 weeks	–	Cidec mRNA level	40.8 ± 10.8 RPKM
C=C(c1cc(F)c(C(=O)O)c(F)c1)c1cc2c(cc1C)C(C)(C)CCC2(C)C	RNA sequencing, measured: Acot1 mRNA	rat, brain	dose not given, 24 h, single dose	relative to: vehicle	log2 fold change	-0.02
CCCCCCCCCC(=O)OCc1cn(-c2ccc(Cl)cc2)nn1	plasma recalcification time	human plasma	1 µM	–	clotting time	285 ± 20 s
CCCOC(=O)Cc1c(C)n(C(=O)c2ccc(Cl)cc2)c2ccc(OC)cc12	hot plate test	BALB/c mice	50 mg/kg, 30 min	–	latency of nociceptive response	13.9 ± 1.28 s
Cc1cc(C)c(-c2ccc(NC(=O)[C@H](Cc3ccc(C(=O)NCCS(=O)(=O)O)cc3)c3ccc(-c4ccc(C(C)(C)C)cc4)cc3)cc2)c(C)c1	glucagon challenge test	mouse, HFD-induced obese	oral, 50 mg/kg, added: glucagon 15 µg/kg ip	–	glucose AUC	decreased
Cc1ccc(C(=O)Nc2ccc(CP(=O)(O)O)cc2CP(=O)(O)O)cc1NC(=O)c1cccc(NC(=O)Nc2cccc(C(=O)Nc3cc(C(=O)Nc4ccc(CP(=O)(O)O)cc4CP(=O)(O)O)ccc3C)c2)c1	aPTT	FXI-deficient human plasma	233 to 467 µM, added: 2.4 nM factor XIa	relative to: untreated	clotting time ratio	1.04 to 1.94 fold
C[C@H](CC(=O)C[C@@H](C)[C@H]1C[C@H](O)[C@@]2(C)C3=C(C(=O)C[C@]12C)[C@@]1(C)CCC(=O)C(C)(C)[C@@H]1C[C@@H]3O)C(=O)O	–	mouse, STZ-induced type 1 diabetes, liver	dose not given	–	hexokinase activity	10.1 ± 0.63 U/mg tissue
CC(CCC(=O)NCc1ccc(C(=O)NO)cc1)C1CCC2C3C(O)CC4CC(O)CCC4(C)C3CCC12C (stereo not shown)	–	PCK rats	oral gavage, 15 mg/kg/day, 5 months	relative to: untreated	kidney to body weight ratio	decreased
Nn1c(S)nnc1CCN(c1ccc(Cl)cc1)S(=O)(=O)c1ccccc1	paw oedema	rat carrageenan oedema	dose not given, 6 h	–	inhibition	67.6%
Cc1ccc(S(=O)(=O)N(CCc2nnc(S)o2)c2ccc(Cl)cc2)cc1	–	rat	75 mg/kg, 3 h, added: carrageenan	–	paw edema inhibition	79.8%
COc1cc(Cn2ccc3cc(C(=O)NCC45CC6CC(CC(C6)C4)C5)ccc32)ccc1C(=O)NO	immunohistochemistry	5xFAD mouse, brain	intraperitoneal, 10 mg/kg once daily, 2 months	relative to: vehicle	ASC aggresome size	decreased
CC(=O)N[C@@H](Cc1c[nH]c2ccccc12)C(=O)N[C@@H](CCCCN)C(=O)N[C@@H](Cc1ccccc1)C(=O)N[C@@H](CCC(=O)O)C(=O)N[C@@H](Cc1ccccc1)C(=O)N[C@@H](CCCCN)C(=O)N[C@@H](Cc1ccccc1)C(=O)N[C@@H](CCC(=O)O)C(N)=O	circular dichroism	5% HFIP in water	0.2 mM, 25 °C	–	time to self-assembly equilibrium	~24 h
CC(C)[C@H](NC(=O)CN)C(=O)N[C@@H](CCCCN)C(=O)NCC(=O)N[C@@H](CC(=O)O)C(=O)N[C@@H](CCCCN)C(=O)NCC(=O)N[C@@H](CC(N)=O)C(=O)N1CCC[C@H]1C(=O)NCC(=O)N[C@@H](Cc1c[nH]c2ccccc12)C(=O)N1CCC[C@H]1C(=O)NCC(=O)N[C@@H](C)C(=O)N1CCC[C@H]1C(=O)O	–	K1735 M4 melanoma, mouse	100 µg/mL coating, peptide-coated plates	relative to: input cells	maximal cell adhesion	> 50%
COc1ccc(-n2cc(CO)nn2)cc1	aPTT	human plasma	10 µM	–	clotting time	48.6 ± 9 s
CC[C@H](C)[C@H](NC(=O)[C@H](CC(N)=O)NC(=O)[C@H](CC(N)=O)NC(=O)[C@H](CCCNC(=N)N)NC(=O)[C@H](CC(N)=O)NC(=O)[C@H](CCCNC(=N)N)NC(=O)[C@H](CCCCN)NC(=O)[C@@H](NC(=O)[C@H](CC(N)=O)NC(=O)[C@H](CCSC)NC(=O)[C@H](CC(C)C)NC(=O)[C@H](Cc1c[nH]c2ccccc12)NC(=O)[C@H](CCC(N)=O)NC(=O)[C@@H](NC(=O)[C@H](Cc1ccccc1)NC(=O)[C@H](CC(=O)O)NC(=O)[C@H](CCC(N)=O)NC(=O)[C@H](C)NC(=O)[C@H](CCCNC(=N)N)NC(=O)[C@H](CCCNC(=N)N)NC(=O)[C@H](CO)NC(=O)[C@H](CC(=O)O)NC(=O)[C@H](CC(C)C)NC(=O)[C@H](Cc1ccc(O)cc1)NC(=O)[C@H](CCCCN)NC(=O)[C@H](CO)NC(=O)[C@H](Cc1ccc(O)cc1)NC(=O)[C@H](CC(=O)O)NC(=O)[C@H](CO)NC(=O)[C@@H](NC(=O)[C@H](Cc1ccccc1)NC(=O)[C@@H](NC(=O)CNC(=O)[C@H](CCC(=O)O)NC(=O)[C@@H](CO)NC(=O)[C@@H](N)Cc1c[nH]cn1)[C@@H](C)O)[C@@H](C)O)C(C)C)[C@@H](C)O)C(=O)N[C@@H](C)C(=O)N[C@@H](CSCC(=O)NCCOCCOCCOCCOCCC(=O)O[C@H]1CC[C@@]2(C)C(=CC[C@H]3[C@@H]4CC[C@H]([C@H](C)CCCC(C)C)[C@@]4(C)CC[C@@H]32)C1)C(N)=O	–	diet-induced obese mice, plasma	subcutaneous, 1.9 µmol/kg, 14 days, chronic dosing	–	free fatty acid level	0.3 mM
CC(C)(O)c1ncc([S@](N)(=O)=NC(=O)Nc2c3c(cc4c2CCC4)CCC3)s1	IL-1β release	healthy humans, whole blood ex vivo	plasma concentration, added: LPS	–	EC50	0.059 µg/mL (≈ 0.14 µM)
COc1cc2c(cc1OC)-c1cc3ccc(OC)c(OC)c3c[n+]1CC2	–	rat, STZ-induced diabetic, liver	oral, 12 mg/kg, day 28	–	SOD activity	7.76 ± 0.63 U/mg protein
CC/C=C\C/C=C\C/C=C\C/C=C\C/C=C\CCCCOC(CC)C(=O)O (stereo not shown)	–	ob/ob mice	dose not given, 4 weeks	relative to: control	plasma ALT change	-33%
C[C@H]1CN(C(=O)c2cn(-c3ccnc(N)n3)c3cc(C#CC4(O)CCCCC4)ccc23)CCN1	–	A549, mice, lung metastasis model	intravenous, 50 mg/kg daily	–	mice with lung metastases	19.5%

Compound	assay	system	setting	how to read	endpoint	value
N[C@@H](Cc1ccccc1)C(=O)N[C@@H](CO)C(=O)N[C@@H](CO)C(=O)N[C@@H](CCC(=O)O)C(=O)O	–	C57BL/6 mice, acetaminophen liver injury	intraperitoneal, 50 or 500 µg/mouse, 24 h, added: acetaminophen 400 mg/kg	relative to: control peptide	serum ALT and AST	decreased
Cc1c(C(=O)Nc2ccn(C)n2)ncn1Cc1cccc(C(F)(F)F)c1	western blot	human WT αS transgenic mouse, cortex	dose not given	relative to: placebo	BiP protein level	decreased
COc1ccc(C2CC(c3ccc(C)cc3)=Nc3ccccc3S2)cc1 (stereo not shown)	–	Wistar rat, STZ-induced diabetes	oral, 20 mg/kg once daily, day 14	–	blood glucose	161 ± 4.12 mg/dL
CCC1CC2C(C)=CC3C(=O)CCCC3C=CC(C)=CC2C(=O)O1 (stereo not shown)	dot blot	5XFAD transgenic mouse, hippocampus RIPA-soluble lysate	oral gavage, 30 mg/kg/day, 5 days	relative to: vehicle	total soluble Aβ reduction	18.7%
C=C1C(=O)OC2C1CCC1(C)OC13CC1OC1(C)C23 (single isomer, unassigned)	–	sarcoma 45, outbred white rat	intraperitoneal, maximum tolerated dose, daily, 5 days	–	tumour growth inhibition	78 to 88%
CC(=O)N[C@@H](CC(N)=O)C(=O)NCC(=O)N[C@@H](C)C(=O)N[C@@H](C)C(N)=O	1H NMR	sodium phosphate buffer 50 mM	pH 7.4, 55 °C	–	rate constant succinimide to α-Asp	0.68 h⁻¹
C[C@@H](N)C1CCN(S(=O)(=O)c2cccc3cnccc23)CC1	–	spontaneously hypertensive rat, transient MCAO	intraperitoneal, 10 mg/kg, 7.5 h after reperfusion	–	hemorrhagic transformation incidence	25%
C=CC(=O)Nc1cc(Nc2nccc(-n3ccc4nc(OC)ccc43)n2)c(OC)cc1N(C)CCN(C)C	–	human	20 mg/day, 17 weeks	–	tumour shrinkage	33.7%
N=C(N)SCc1ccccc1CSC(=N)N	ELISA	mouse, CT26-Ido1 tumour, tumour	dose not given	–	Kyn/Trp ratio	decreased
COc1ccc2c(c1)c(CC(=O)OCC(=O)c1ccccc1)c(C)n2C(=O)c1ccc(Cl)cc1	hot plate test	BALB/c mice	75 mg/kg, 120 min	–	latency of nociceptive response	15.5 ± 1.39 s
CCn1nc(Cl)c2c1-c1cnc(N)c(c1)O[C@H](C)c1cc(F)ccc1-c1nn(C)cc1C2	RECIST	human	oral, 150 mg once daily, 6 weeks	–	tumour size change	-82%
O=[N+]([O-])c1cccc(S(=O)(=O)NC[C@@H](O)[C@@H]2CCc3cc(F)ccc3O2)c1	–	rat, carrageenan paw oedema	oral, 100 mg/kg, 3 h after carrageenan	–	paw volume	0.77 ± 0.28 mL
OCc1cnn(-c2ccccc2)n1	aPTT	human plasma	1 µM	–	clotting time	51.4 ± 0.7 s
CCOC(=O)C(Cc1cccc(O)c1)OC(=O)C=Cc1ccc(O)c(O)c1C=Cc1ccc(O)c(O)c1 (stereo not shown)	–	C57 wild-type mice, isoproterenol-induced myocardial ischemia, serum	oral, 10 mg/kg pretreatment for 7 days, added: isoproterenol 3 mg/kg	relative to: normal group	serum LDH level	123 ± 19%
C=C(c1ccc(C(=O)O)c(F)c1)c1cc2c(cc1C)C(C)(C)C=CC2(C)C	RNA sequencing, measured: Abca1 mRNA	rat, brain	dose not given, 24 h, single dose	relative to: vehicle	log2 fold change	-1.78
NS(=O)(=O)NCC(F)(F)c1ccccc1F	protection from seizures	hippocampal kindled rat	intraperitoneal, 0.25 h	–	ED50	44 ± 3 mg/kg
CCCCOCc1cn(-c2cc(Cl)ccc2Cl)nn1	prothrombin time	human plasma	10 µM	–	clotting time	15.2 ± 0.06 s
CC(=O)c1cnc(N)nc1N1CC[C@H]1c1nn2ccc(Cl)c2c(=O)n1-c1ccccc1	arthritic inflammation	rat collagen-induced arthritis	oral, twice daily	–	ED50	0.25 mg/kg
Cc1cc2c(cc1C1(c3ncc(C(=O)O)cn3)CC1)C(C)(C)CCC2(C)C	RNA sequencing, measured: Inmt mRNA	rat, brain	dose not given, 24 h, single dose	relative to: vehicle	log2 fold change	-0.36
Cc1ccc([C@@H]2O[C@H](CO)[C@@H](O)[C@H](O)[C@H]2O)cc1Cc1ccc(-c2ccc(F)cc2)s1	–	rabbit, STZ-nicotinamide diabetes, serum	concentration not given, 28 days	–	blood urea nitrogen	72.1 ± 6.01 mg/dL

Some of these lines once more:
Compound	assay	system	setting	how to read	endpoint	value
COc1cc2c(cc1OC)-c1cc3ccc(OC)c(OC)c3c[n+]1CC2	–	rat, STZ-induced diabetic, liver	oral, 12 mg/kg, day 28	–	SOD activity	7.76 ± 0.63 U/mg protein
Cc1ccc([C@@H]2O[C@H](CO)[C@@H](O)[C@H](O)[C@H]2O)cc1Cc1ccc(-c2ccc(F)cc2)s1	–	rabbit, STZ-nicotinamide diabetes, serum	concentration not given, 28 days	–	blood urea nitrogen	72.1 ± 6.01 mg/dL
